Measured values from different studies.
In brackets after ≈: the same amount, converted by molar mass.
Organism: Klebsiella pneumoniae

| SMILES | test | system | conditions | scale | measurement | value |
| --- | --- | --- | --- | --- | --- | --- |
| CC[C@H](C)[C@H](NC(=O)[C@H](Cc1ccc(O)cc1)NC(=O)[C@@H](NC(=O)[C@H](Cc1ccc(O)cc1)NC(=O)[C@@H]1CCCN1C(=O)[C@@H](NC(=O)[C@H](C)N)[C@@H](C)CC)[C@@H](C)CC)C(=O)N[C@@H](Cc1c[nH]c2ccccc12)C(=O)N[C@@H](CCCNC(=N)N)C(=O)N[C@@H](CC(C)C)C(=O)N[C@@H](CC(C)C)C(=O)N[C@@H](CCCNC(=N)N)C(=O)N[C@@H](CCCCN)C(=O)NCC(=O)O |  | ATCC 700603 | 18 h, 37 °C |  | MBC | > 15 µM |
| CC[C@H](C)[C@H](NC(=O)[C@H](C)NC(=O)[C@H](CCCCN)NC(=O)[C@H](CC(C)C)NC(=O)[C@H](C)NC(=O)[C@@H](NC(=O)[C@H](Cc1c[nH]cn1)NC(=O)[C@H](CC(C)C)NC(=O)[C@@H](NC(=O)[C@@H](NC(=O)[C@H](CCCCN)NC(=O)[C@H](C)NC(=O)[C@H](C)NC(=O)[C@H](CO)NC(=O)[C@H](CCCCN)NC(=O)[C@H](Cc1ccccc1)NC(=O)[C@@H](NC(=O)[C@H](CCCCN)NC(=O)[C@H](CC(C)C)NC(=O)[C@H](Cc1ccccc1)NC(=O)[C@H](CO)NC(=O)[C@H](CCCCN)NC(=O)[C@H](Cc1c[nH]c2ccccc12)NC(=O)[C@H](CCCCN)NC(C)=O)[C@@H](C)O)[C@@H](C)O)C(C)C)[C@@H](C)O)C(=O)N[C@@H](CO)C(=O)N[C@@H](CO)C(N)=O |  |  | 80 strains |  | MIC50 | 4 µg/mL (≈ 1.36 µM) |
| C[C@@H](O)[C@H]1C(=O)N2C(C(=O)O)=C(S[C@@H]3CN[C@H](C(=O)N(C)C)C3)[C@H](C)[C@H]12 |  | ATCC 700603, mouse lung infection, lung | intraperitoneal, 10 mg/kg, 24 h |  | reduction of bacterial load | 94% |
| COc1ccc2c(ccc3oc([N+](=O)[O-])c(C)c32)c1 | REMA |  |  |  | MIC90 | > 32 µg/mL |
| CC[C@H](C)CCCCC(=O)N[C@@H](CCN)C(=O)N[C@H](C(=O)N[C@@H](CCN)C(=O)N[C@H]1CCNC(=O)[C@H]([C@@H](C)O)NC(=O)[C@H](CCN)NC(=O)[C@H](CCN)NC(=O)[C@H](CC(C)C)NC(=O)[C@@H](CC(C)C)NC(=O)[C@H](CCN)NC1=O)[C@@H](C)O | NPN efflux | ATCC 43816 ΔacrAB | 5 to 100 µM except 5 µM |  | time to pre-efflux NPN fluorescence | ≤ 2 min |
| CC[C@H](C)[C@H](NC(=O)[C@H](Cc1ccccc1)NC(=O)[C@@H](NC(=O)[C@H](Cc1c[nH]c2ccccc12)NC(=O)[C@@H]1CCCN1C(=O)[C@@H](NC(=O)[C@H](C)N)[C@@H](C)CC)[C@@H](C)CC)C(=O)N[C@@H](Cc1ccccc1)C(=O)N[C@@H](CCCNC(=N)N)C(=O)N[C@@H](CC(C)C)C(=O)N[C@@H](CC(C)C)C(=O)N[C@@H](CCCNC(=N)N)C(=O)N[C@@H](CCCCN)C(=O)NCC(N)=O |  | ATCC 700603 | 18 h, 37 °C |  | MBC | 15 µM (≈ 25.9 µg/mL) |
| C[C@H]1[C@H](NC(=O)/C(=N\OC(C)(C)C(=O)O)c2csc(N)n2)C(=O)N1S(=O)(=O)O |  | ESBL producing, ICR mice, systemic lethal infection | up to 60 mg/kg |  | survival rate | 100% |
| O=[N+]([O-])c1cc2cc3ccc4oc([N+](=O)[O-])cc4c3cc2o1 | REMA |  |  |  | MIC90 | 2 µg/mL (≈ 6.71 µM) |
| CC[C@H](C)[C@H](NC(=O)[C@H](Cc1c[nH]c2ccccc12)NC(=O)[C@@H](NC(=O)[C@H](Cc1c[nH]c2ccccc12)NC(=O)[C@@H]1CCCN1C(=O)[C@@H](NC(=O)[C@H](C)N)[C@@H](C)CC)[C@@H](C)CC)C(=O)N[C@@H](Cc1c[nH]c2ccccc12)C(=O)N[C@@H](CCCNC(=N)N)C(=O)N[C@@H](CC(C)C)C(=O)N[C@@H](CC(C)C)C(=O)N[C@@H](CCCNC(=N)N)C(=O)N[C@@H](CCCCN)C(=O)NCC(N)=O |  | ATCC 700603 | 18 h, 37 °C |  | MBC | > 15 µM |
| C[C@@H](O)[C@H]1C(=O)N2C(C(=O)O)=C([C@H]3CCCO3)S[C@H]12 | checkerboard | carbapenem-resistant | concentration not given, together with: anionic gold nanoparticle 8 µg/mL | relative to: MIC alone over combination | MIC fold reduction | > 2 fold |
| CC[C@H](C)[C@H](NC(=O)[C@H](CC(C)C)NC(=O)[C@H](CCCNC(=N)N)NC(=O)[C@H](CCCNC(=N)N)NC(=O)[C@H](CCCNC(=N)N)NC(=O)[C@H](CCCNC(=N)N)NC(=O)[C@H](CC(C)C)NC(=O)[C@@H](NC(=O)[C@@H](NC(=O)[C@@H](NC(=O)[C@H](CC(C)C)NC(=O)[C@H](CCCNC(=N)N)NC(=O)[C@H](CO)NC(=O)[C@@H](N)CO)C(C)C)[C@@H](C)CC)[C@@H](C)CC)C(=O)N[C@@H](CO)C(=O)N[C@@H](CCCNC(=N)N)C(=O)N[C@@H](CCCNC(=N)N)C(=O)N[C@@H](CCCNC(=N)N)C(=O)N[C@@H](CCCNC(=N)N)C(N)=O |  |  |  |  | MIC range | 4 to 8 µM (≈ 9.85 to 19.7 µg/mL) |
| O=[N+]([O-])c1cc2c(ccc3cc(Br)ccc32)o1 | REMA |  |  |  | MIC90 | > 32 µg/mL |
| C[C@@H](O)[C@H]1C(=O)N2C(C(=O)O)=C(S[C@@H]3CN[C@H](C(=O)Nc4cccc(C(=O)O)c4)C3)[C@H](C)[C@H]12 | checkerboard | carbapenem-resistant | concentration not given, together with: anionic gold nanoparticle 8 µg/mL | relative to: MIC alone over combination | MIC fold reduction | 2 fold |
| C[C@@H](O)[C@H]1C(=O)N2C(C(=O)O)=C(S[C@@H]3CN[C@H](C(=O)N(C)C)C3)[C@H](C)[C@H]12 |  | NDM-producing, neutropenic BALB/c mouse, thigh infection, thigh | dose not given, 4 h |  | bacterial burden, best | 8 log10 CFU/thigh |
| Nc1c([N+](=O)[O-])oc2ccc3ccccc3c12 | REMA |  |  |  | MIC90 | 16 µg/mL (≈ 70.1 µM) |
| C[C@@H](O)[C@H]1C(=O)N2C(C(=O)O)=C(S[C@@H]3CN[C@H](CNS(N)(=O)=O)C3)[C@H](C)[C@H]12 | checkerboard | carbapenem-resistant | concentration not given, together with: anionic gold nanoparticle 8 µg/mL | relative to: MIC alone over combination | MIC fold reduction | 16 fold |
| Cc1c([N+](=O)[O-])oc2ccc3ccccc3c12 | REMA |  |  |  | MIC90 | 0.25 µg/mL (≈ 1.1 µM) |
| NCC[C@H](O)C(=O)N[C@@H]1C[C@H](N)[C@@H](O[C@H]2O[C@H](CN)[C@@H](O)[C@H](O)[C@H]2O)[C@H](O)[C@H]1O[C@H]1O[C@H](CO)[C@@H](O)[C@H](N)[C@H]1O | growth inhibition, checkerboard |  | compound alone |  | IC90 | 58.4 µg/mL |
| COc1cc2ccc3oc([N+](=O)[O-])cc3c2cc1OC | REMA |  |  |  | MIC90 | > 32 µg/mL |
| CC[C@H](C)[C@H](NC(=O)[C@H](Cc1c[nH]c2ccccc12)NC(=O)[C@@H](NC(=O)[C@H](Cc1ccccc1)NC(=O)[C@@H]1CCCN1C(=O)[C@@H](NC(=O)[C@H](C)N)[C@@H](C)CC)[C@@H](C)CC)C(=O)N[C@@H](Cc1ccccc1)C(=O)N[C@@H](CCCNC(=N)N)C(=O)N[C@@H](CC(C)C)C(=O)N[C@@H](CC(C)C)C(=O)N[C@@H](CCCNC(=N)N)C(=O)N[C@@H](CCCCN)C(=O)NCC(N)=O |  | ATCC 700603 | 18 h, 37 °C |  | MBC | > 15 µM |
| CCOC(=O)COc1ccc2ccc3oc([N+](=O)[O-])cc3c2c1 | REMA |  |  |  | MIC90 | 0.25 µg/mL (≈ 0.793 µM) |
| Cn1c(=O)ccc2ccc(F)c(CCNC[C@H]3CN(c4cnc5c(n4)NC(=O)CO5)C(=O)O3)c21 |  |  |  |  | MIC50 | 0.5 µg/mL (≈ 1.07 µM) |

Repeated from above:
| SMILES | test | system | conditions | scale | measurement | value |
| --- | --- | --- | --- | --- | --- | --- |
| Cn1c(=O)ccc2ccc(F)c(CCNC[C@H]3CN(c4cnc5c(n4)NC(=O)CO5)C(=O)O3)c21 |  |  |  |  | MIC50 | 0.5 µg/mL (≈ 1.07 µM) |
| C[C@H]1[C@H](NC(=O)/C(=N\OC(C)(C)C(=O)O)c2csc(N)n2)C(=O)N1S(=O)(=O)O |  | ESBL producing, ICR mice, systemic lethal infection | up to 60 mg/kg |  | survival rate | 100% |
